Measured values from different studies.
Lines come from different studies, so protocols differ. Numbers after ± are the reported error.

COc1ccc2c(c1)c(CC(=O)[Se]CC(=O)Nc1cccc(C(F)(F)F)c1)c(C)n2C(=O)c1ccc(Cl)cc1  GI50 (NCI60 melanoma subpanel; cell growth, inhibitor; five-dose): 1900 nM
Nc1ncc(-c2cc(-c3cnn(CC(F)(F)F)c3)ncc2F)nc1C(=O)NC1CNCC(F)C1 (stereo not shown)  remaining binding (MYO3B; KINOMEscan; 1 µM; relative to: DMSO control): 97%
C=CS(=O)(=O)Oc1ccc(OC)c(-c2c[nH]c3ncc(-c4cncc(C(=O)N(C)C)c4)cc23)c1  GI50 (Ba/F3 BCR-ABL wild type; cell proliferation; 72 h): 192 ± 4 nM
COC1CN([C@H]2CC[C@H]([C@@]3(C)Oc4c(Cl)cc(C(=O)NCc5c(SC)cc(C)[nH]c5=O)c(C)c4O3)CC2)C1  log2 fold change (RNA-seq, refers to: GRAMD1C mouse homolog; mouse, HT-1376 xenograft, whole blood; dose not given; relative to: vehicle): 0.694
Cc1cc(=O)oc2cc(OCCCCCCSC#N)ccc12  GI50 (WiDr, multidrug-resistant; sulforhodamine B): 3100 ± 300 nM
COc1ccccc1-c1c[nH]c2ncc(-c3cncc(C(=O)N(C)C)c3)cc12  GI50 (Ba/F3 BCR-ABL wild type; cell proliferation; 72 h): 60.1 ± 8 nM
Cc1ncsc1-c1ccc(C(C)NC(=O)C2CC(O)CN2C(=O)C(NC(=O)CCCCCCCCCCN2CCCC(Nc3ncc(Cl)c(Nc4ccccc4S(=O)(=O)C(C)C)n3)C2)C(C)(C)C)cc1 (stereo not shown)  log2 fold change (22Rv1; RNA-seq, refers to: RPP38 mRNA; concentration not given; relative to: DMSO): -1.13
O=C(C[Se]C(=O)c1ccc2ccccc2c1)Nc1cccc(C(F)(F)F)c1  GI50 (NCI60 melanoma subpanel; cell growth, inhibitor; five-dose): 1700 nM
CCN(C(=O)c1cc(F)ccc1Oc1nncnc1N1CCC2(C1)CN([C@H](CCCN(C)CCOC)C(C)C)C2)C(C)C  GI50 (MV4-11; cell growth or viability; 7 days): 9.1 nM
C=CC(=O)Oc1ccc(OC)c(-c2c[nH]c3ncc(-c4cncc(C(=O)N(C)C)c4)cc23)c1  GI50 (Ba/F3 BCR-ABL wild type; cell proliferation; 72 h): 58.4 ± 5.8 nM
O=C(C[Se]C(=O)C12CC3CC(CC(C3)C1)C2)Nc1cccc(C(F)(F)F)c1  GI50 (NCI60 leukaemia subpanel; NCI60 five-dose screen): 8390 nM
N#CSCCCCCCOc1ccc2c(-c3ccccc3)cc(=O)oc2c1  GI50 (WiDr, multidrug-resistant; sulforhodamine B): 14000 ± 4000 nM
C=CC(=O)Nc1cccc(Cn2ncc3cnc(Nc4cnn(CCOC)c4)nc32)c1  percent of control (CAMKK1 human; binding, KINOMEscan; 100 nM; lower = stronger binding): 95%
